Published values collected from several papers.
Each line is one published result; not all experiments were run side by side. Several values in a cell are separate wells, animals, samples, runs or records. ± gives the spread as reported.
Chain of UniProt Q64663 (whole entry, unmodified, looked up): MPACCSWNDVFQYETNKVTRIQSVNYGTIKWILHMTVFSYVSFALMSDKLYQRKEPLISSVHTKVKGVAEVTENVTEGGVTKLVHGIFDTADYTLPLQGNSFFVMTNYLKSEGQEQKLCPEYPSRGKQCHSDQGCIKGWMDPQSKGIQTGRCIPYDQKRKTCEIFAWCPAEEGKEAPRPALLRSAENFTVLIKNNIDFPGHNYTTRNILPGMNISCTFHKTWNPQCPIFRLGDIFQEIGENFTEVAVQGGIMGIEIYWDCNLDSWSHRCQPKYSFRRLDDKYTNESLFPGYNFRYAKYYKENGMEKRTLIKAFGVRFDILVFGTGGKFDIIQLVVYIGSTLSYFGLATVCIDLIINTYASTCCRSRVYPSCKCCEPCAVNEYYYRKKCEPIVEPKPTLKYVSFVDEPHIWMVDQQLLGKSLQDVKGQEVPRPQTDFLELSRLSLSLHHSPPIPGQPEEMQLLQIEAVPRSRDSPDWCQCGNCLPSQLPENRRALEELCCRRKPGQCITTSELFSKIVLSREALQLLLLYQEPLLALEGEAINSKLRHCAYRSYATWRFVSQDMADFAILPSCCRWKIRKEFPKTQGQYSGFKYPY
Chain of UniProt P62258 (whole entry, looked up): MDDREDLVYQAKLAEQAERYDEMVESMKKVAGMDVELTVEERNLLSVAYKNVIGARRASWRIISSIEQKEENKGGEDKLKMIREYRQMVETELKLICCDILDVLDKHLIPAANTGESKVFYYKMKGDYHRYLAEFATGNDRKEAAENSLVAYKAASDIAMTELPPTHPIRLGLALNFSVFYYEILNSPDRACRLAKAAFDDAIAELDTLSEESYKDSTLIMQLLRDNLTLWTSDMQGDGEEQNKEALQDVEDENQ
Chain of UniProt Q92945 (whole entry, looked up): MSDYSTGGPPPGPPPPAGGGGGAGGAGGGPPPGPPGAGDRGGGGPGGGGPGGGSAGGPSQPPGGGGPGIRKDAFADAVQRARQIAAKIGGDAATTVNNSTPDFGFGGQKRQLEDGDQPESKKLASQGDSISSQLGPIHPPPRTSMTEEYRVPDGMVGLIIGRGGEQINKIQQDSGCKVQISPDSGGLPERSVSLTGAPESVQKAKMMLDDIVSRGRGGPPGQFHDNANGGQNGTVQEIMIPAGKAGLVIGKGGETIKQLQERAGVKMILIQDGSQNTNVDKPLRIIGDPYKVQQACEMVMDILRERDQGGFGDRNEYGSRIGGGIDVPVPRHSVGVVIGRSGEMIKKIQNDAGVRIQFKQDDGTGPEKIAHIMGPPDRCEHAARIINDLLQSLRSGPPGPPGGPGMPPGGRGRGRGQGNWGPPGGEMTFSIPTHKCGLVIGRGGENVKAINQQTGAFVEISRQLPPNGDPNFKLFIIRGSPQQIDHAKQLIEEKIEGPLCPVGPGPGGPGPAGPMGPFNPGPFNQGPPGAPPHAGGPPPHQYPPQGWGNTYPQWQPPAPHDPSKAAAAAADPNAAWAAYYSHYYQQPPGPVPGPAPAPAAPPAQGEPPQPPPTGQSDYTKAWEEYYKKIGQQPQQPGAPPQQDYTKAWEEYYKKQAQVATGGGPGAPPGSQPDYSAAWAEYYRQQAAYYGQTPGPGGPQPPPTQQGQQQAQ
Chain of UniProt P62937 (whole entry, looked up): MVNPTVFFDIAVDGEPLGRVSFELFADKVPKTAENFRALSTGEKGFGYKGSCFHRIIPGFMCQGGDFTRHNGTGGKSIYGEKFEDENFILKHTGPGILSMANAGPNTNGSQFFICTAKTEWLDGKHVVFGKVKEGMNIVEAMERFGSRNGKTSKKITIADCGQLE
Chain of UniProt O60573 (whole entry, unmodified, looked up): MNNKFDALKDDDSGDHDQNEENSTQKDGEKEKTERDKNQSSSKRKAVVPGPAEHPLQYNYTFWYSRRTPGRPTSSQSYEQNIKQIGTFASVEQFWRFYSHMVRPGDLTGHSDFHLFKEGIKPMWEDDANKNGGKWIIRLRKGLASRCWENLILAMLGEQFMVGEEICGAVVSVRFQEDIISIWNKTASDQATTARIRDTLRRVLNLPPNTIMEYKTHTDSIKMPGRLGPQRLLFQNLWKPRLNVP
Chain of UniProt P51153 (whole entry, looked up): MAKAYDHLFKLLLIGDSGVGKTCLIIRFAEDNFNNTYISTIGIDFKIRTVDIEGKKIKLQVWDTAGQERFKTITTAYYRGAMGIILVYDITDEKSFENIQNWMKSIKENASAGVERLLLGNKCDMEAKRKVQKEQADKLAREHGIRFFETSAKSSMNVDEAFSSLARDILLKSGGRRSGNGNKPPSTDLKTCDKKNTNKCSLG
Chain of UniProt P09382 (whole entry, looked up): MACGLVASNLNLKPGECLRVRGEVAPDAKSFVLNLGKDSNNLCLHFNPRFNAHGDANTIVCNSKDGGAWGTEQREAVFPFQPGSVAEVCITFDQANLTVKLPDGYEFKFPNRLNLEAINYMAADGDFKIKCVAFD
Chain of UniProt P31946 (whole entry, looked up): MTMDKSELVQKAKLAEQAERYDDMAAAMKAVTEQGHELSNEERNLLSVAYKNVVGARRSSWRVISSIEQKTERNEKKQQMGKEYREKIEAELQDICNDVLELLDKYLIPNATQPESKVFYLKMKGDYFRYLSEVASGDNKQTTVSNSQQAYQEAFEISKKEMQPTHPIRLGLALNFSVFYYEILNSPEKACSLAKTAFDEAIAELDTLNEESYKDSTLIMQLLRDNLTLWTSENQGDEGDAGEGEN
Chain of UniProt O95182 (whole entry, looked up): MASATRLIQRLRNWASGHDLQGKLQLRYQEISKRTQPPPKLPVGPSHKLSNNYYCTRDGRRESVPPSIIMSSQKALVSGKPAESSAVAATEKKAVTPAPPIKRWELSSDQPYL
Chain of UniProt O75489 (whole entry, looked up): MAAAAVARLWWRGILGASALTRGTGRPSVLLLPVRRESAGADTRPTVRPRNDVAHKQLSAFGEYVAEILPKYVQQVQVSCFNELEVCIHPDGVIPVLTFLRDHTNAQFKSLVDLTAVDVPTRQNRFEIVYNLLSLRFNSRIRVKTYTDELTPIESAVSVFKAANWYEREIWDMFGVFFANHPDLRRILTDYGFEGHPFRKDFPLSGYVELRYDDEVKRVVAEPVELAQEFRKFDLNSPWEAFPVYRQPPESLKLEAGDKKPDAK
Chain of UniProt Q92620 (whole entry, looked up): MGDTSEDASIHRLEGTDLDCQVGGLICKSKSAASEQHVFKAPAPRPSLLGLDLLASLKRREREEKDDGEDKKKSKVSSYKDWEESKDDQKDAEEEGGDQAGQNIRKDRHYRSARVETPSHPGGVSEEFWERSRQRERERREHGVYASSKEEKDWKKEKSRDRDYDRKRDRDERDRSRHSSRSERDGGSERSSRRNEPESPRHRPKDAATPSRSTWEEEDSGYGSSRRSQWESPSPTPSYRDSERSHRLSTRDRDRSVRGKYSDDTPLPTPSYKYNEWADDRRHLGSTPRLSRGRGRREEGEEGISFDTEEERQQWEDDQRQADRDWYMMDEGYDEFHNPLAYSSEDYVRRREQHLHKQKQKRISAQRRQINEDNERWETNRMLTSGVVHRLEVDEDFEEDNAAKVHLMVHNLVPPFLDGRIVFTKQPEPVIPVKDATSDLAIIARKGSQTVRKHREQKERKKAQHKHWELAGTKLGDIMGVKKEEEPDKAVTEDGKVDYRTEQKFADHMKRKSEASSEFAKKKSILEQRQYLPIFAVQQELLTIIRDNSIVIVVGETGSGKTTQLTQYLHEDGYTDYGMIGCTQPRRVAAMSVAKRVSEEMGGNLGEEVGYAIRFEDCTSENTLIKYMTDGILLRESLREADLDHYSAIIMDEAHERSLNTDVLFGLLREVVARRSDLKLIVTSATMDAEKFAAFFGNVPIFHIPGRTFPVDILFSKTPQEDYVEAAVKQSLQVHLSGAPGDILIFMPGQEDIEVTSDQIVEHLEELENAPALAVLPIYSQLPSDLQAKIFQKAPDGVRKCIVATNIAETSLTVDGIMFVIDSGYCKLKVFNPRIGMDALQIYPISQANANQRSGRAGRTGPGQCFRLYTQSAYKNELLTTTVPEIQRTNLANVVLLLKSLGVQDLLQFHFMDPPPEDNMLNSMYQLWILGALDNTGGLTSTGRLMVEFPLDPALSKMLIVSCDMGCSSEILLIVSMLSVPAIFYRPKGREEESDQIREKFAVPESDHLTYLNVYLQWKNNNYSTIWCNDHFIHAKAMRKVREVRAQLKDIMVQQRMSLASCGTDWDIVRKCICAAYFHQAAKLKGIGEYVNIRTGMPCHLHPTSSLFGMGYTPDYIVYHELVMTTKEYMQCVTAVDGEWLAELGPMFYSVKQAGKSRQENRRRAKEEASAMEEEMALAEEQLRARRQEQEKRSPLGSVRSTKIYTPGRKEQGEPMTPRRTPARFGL

caspofungin — aspartate aminotransferase (adult ICU patients, mITT, serum; dose not given, day 30): 26.2 U/L
FNA / CGLSGLGVA-NH2 ([18F]FNA-labelled, C-amide) — tissue uptake (ex vivo gamma counting; peptide, glioblastoma mouse model, kidney; 60 min post injection, added: 500-fold excess CooP blocking): 4.23 %ID/g
KRT1 (Homo sapiens, UniProt P04264) — cross-linked residues (Gamma-aminobutyric acid receptor-associated protein-like 2 (Homo sapiens, UniProt P60520); cross-linking MS; added: DSSO or DMTMM): K472 to E96
human ME2 Q51H — activation fold (enzyme activity, activator, NADH absorbance; recombinant enzyme; range over 0 to 5 mM, pH 7.4; relative to: wild type): 0.8
ERH (Homo sapiens, UniProt P84090) — cross-linked residues (THRAP3 (Homo sapiens, UniProt Q9Y2W1); cross-linking MS; cells; added: BDP-NHP): K90 to K519
THOC2 (Homo sapiens, UniProt Q8NI27) — cross-linked residues (SPIN1 (Homo sapiens, UniProt Q9Y657); cross-linking MS; added: DSSO): K405 to K104
KYKLADYRYGREEMLALFLK (GIGYF2(35-54) peptide; sequence looked up) — -TΔS (EIF4E2 (Homo sapiens, UniProt O60573); ITC; peptide; pH 7.0, 20 °C, GB1-stabilized peptide titration): 13.5 kcal/mol
durvalumab — Ctrough geometric mean (human cancer patients, plasma; intravenous, 1500 mg, cycle 4 day 1, added: adavosertib 175 mg twice daily): 63.8 µg/mL
HSPA12B (Homo sapiens, UniProt Q96MM6) — cross-linked residues (SLC40A1 (Homo sapiens, UniProt Q9NP59); cross-linking MS; added: DSSO): K560 to K366
STAT5A (Homo sapiens, UniProt P42229) — cross-linked residues (Histone H4 (Homo sapiens, UniProt P62805); cross-linking MS; added: DSSO): K644 to K32
FGB (Homo sapiens, UniProt P02675) — cross-linked residues (ASCC3 (Homo sapiens, UniProt Q8N3C0); cross-linking MS; added: DSSO): K83 to K2109
GAPDH (Homo sapiens, UniProt P04406) — cross-linked residues (DHX38 (Homo sapiens, UniProt Q92620); cross-linking MS; cells; added: iqPIR): K219 to K522
11-deoxycorticosterone — rate constant k-1 (CYP11B2 (human); substrate binding, stopped-flow global kinetic fitting; purified enzyme; 3-state induced fit model, added: 10-fold excess adrenodoxin): 31 ± 1.58 s⁻¹
SLC4A1 (Homo sapiens, UniProt P02730) — cross-linked residues (RNF123 (Homo sapiens, UniProt Q5XPI4); cross-linking MS; added: DSSO or DMTMM): D45 to K467
DSG2 (Homo sapiens, UniProt Q14126) — cross-linked residues (KHSRP (Homo sapiens, UniProt Q92945); cross-linking MS; cells; added: iqPIR): K849 to K266
ALB (Homo sapiens, UniProt P02768) — cross-linked residues (CCDC166 (Homo sapiens, UniProt P0CW27); cross-linking MS; added: DSSO): K426 to K89
YWHAE (Homo sapiens, UniProt P62258) — cross-linked residues (PPIA (Homo sapiens, UniProt P62937); cross-linking MS; cells; added: iqPIR): K73 to K76
BzATP — normalized current (P2X purinoceptor 7 (P2rx7, Rattus norvegicus, UniProt Q64663, Q143A/R125A); ion current, agonist, two-electrode voltage clamp; Xenopus laevis oocytes; 0.41 µM; relative to: highest concentration response): 0 and 0.00625 and 0.00534
SRP14 (Homo sapiens, UniProt P37108) — cross-linked residues (SRP9 (Homo sapiens, UniProt P49458); cross-linking MS; cells; added: BDP-NHP): K66 to K30
PRTARHAPAVRKFSPDLKLLKDVKISVSFTE (DGCR8(96-126), SUMO-tagged) — ΔH (Enhancer of rudimentary homolog (Homo sapiens, UniProt P84090, M35A); DGCR8 peptide binding, ITC; peptide; 293 K): -2.39 ± 0.208 kcal/mol
NDUFS3 (Homo sapiens, UniProt O75489) — cross-linked residues (NDUFA7 (Homo sapiens, UniProt O95182); cross-linking MS; cells; added: iqPIR): K56 to K102
FGA (Homo sapiens, UniProt P02671) — cross-linked residues (BOD1L1 (Homo sapiens, UniProt Q8NFC6); cross-linking MS; added: DSSO): K157 to K852
CLTC (Homo sapiens, UniProt Q00610) — cross-linked residues (PLEC (Homo sapiens, UniProt Q15149); cross-linking MS; cells; added: BDP-NHP): K245 to K1774
colistin — MIC (Pseudomonas aeruginosa; broth microdilution; clinical isolate RKI-No_130/15): 1 µg/mL
GAPDH (Homo sapiens, UniProt P04406) — cross-linked residues (TOP1 (Homo sapiens, UniProt P11387); cross-linking MS; cells; added: BDP-NHP): K194 to K164
LGALS1 (Homo sapiens, UniProt P09382) — cross-linked residues (RAB13 (Homo sapiens, UniProt P51153); cross-linking MS; cells; added: iqPIR): K64 to K107
PDHX (Homo sapiens, UniProt O00330) — cross-linked residues (DLAT (Homo sapiens, UniProt P10515); cross-linking MS; cells; added: BDP-NHP): K488 to K473
YWHAB (Homo sapiens, UniProt P31946) — cross-linked residues (YWHAE (Homo sapiens, UniProt P62258); cross-linking MS; cells; added: iqPIR): K70 to K50

Some of these lines once more:
FGB (Homo sapiens, UniProt P02675) — cross-linked residues (ASCC3 (Homo sapiens, UniProt Q8N3C0); cross-linking MS; added: DSSO): K83 to K2109
STAT5A (Homo sapiens, UniProt P42229) — cross-linked residues (Histone H4 (Homo sapiens, UniProt P62805); cross-linking MS; added: DSSO): K644 to K32
KRT1 (Homo sapiens, UniProt P04264) — cross-linked residues (Gamma-aminobutyric acid receptor-associated protein-like 2 (Homo sapiens, UniProt P60520); cross-linking MS; added: DSSO or DMTMM): K472 to E96
NDUFS3 (Homo sapiens, UniProt O75489) — cross-linked residues (NDUFA7 (Homo sapiens, UniProt O95182); cross-linking MS; cells; added: iqPIR): K56 to K102
